Results pooled from the literature.
Each numbered part is a random draw from the data of one study; scales do not carry over between parts. Several values in a cell are separate wells, animals, samples, runs or records.
Sequence of UniProt P42336 (whole entry, unmodified, looked up): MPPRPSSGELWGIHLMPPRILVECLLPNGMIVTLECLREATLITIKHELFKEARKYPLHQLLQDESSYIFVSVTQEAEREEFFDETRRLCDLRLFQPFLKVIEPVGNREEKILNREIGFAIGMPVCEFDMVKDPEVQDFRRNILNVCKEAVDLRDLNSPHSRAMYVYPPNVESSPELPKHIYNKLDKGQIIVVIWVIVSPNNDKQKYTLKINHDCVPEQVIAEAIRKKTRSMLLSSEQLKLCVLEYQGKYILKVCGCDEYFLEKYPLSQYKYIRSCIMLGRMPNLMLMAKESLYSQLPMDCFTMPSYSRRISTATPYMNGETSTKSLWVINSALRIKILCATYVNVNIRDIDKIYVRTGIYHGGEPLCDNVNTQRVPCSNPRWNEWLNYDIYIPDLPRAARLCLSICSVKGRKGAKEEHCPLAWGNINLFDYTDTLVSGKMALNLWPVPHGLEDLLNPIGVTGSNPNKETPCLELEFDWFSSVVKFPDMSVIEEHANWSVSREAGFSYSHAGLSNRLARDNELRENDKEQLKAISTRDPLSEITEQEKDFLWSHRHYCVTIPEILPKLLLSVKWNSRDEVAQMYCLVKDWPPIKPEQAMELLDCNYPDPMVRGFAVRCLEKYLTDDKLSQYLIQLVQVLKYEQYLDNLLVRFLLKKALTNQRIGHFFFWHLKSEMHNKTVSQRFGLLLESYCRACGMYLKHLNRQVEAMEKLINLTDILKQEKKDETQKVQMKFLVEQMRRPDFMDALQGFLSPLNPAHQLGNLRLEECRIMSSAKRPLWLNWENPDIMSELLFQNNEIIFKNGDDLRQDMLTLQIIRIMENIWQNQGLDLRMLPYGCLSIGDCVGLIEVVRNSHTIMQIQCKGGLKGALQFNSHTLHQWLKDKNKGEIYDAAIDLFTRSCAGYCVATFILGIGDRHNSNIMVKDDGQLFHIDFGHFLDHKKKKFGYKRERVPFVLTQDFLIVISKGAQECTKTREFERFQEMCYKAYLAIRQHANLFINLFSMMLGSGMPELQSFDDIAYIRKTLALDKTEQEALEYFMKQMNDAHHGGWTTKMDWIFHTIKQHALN
Sequence of UniProt P00519 (whole entry, unmodified, looked up): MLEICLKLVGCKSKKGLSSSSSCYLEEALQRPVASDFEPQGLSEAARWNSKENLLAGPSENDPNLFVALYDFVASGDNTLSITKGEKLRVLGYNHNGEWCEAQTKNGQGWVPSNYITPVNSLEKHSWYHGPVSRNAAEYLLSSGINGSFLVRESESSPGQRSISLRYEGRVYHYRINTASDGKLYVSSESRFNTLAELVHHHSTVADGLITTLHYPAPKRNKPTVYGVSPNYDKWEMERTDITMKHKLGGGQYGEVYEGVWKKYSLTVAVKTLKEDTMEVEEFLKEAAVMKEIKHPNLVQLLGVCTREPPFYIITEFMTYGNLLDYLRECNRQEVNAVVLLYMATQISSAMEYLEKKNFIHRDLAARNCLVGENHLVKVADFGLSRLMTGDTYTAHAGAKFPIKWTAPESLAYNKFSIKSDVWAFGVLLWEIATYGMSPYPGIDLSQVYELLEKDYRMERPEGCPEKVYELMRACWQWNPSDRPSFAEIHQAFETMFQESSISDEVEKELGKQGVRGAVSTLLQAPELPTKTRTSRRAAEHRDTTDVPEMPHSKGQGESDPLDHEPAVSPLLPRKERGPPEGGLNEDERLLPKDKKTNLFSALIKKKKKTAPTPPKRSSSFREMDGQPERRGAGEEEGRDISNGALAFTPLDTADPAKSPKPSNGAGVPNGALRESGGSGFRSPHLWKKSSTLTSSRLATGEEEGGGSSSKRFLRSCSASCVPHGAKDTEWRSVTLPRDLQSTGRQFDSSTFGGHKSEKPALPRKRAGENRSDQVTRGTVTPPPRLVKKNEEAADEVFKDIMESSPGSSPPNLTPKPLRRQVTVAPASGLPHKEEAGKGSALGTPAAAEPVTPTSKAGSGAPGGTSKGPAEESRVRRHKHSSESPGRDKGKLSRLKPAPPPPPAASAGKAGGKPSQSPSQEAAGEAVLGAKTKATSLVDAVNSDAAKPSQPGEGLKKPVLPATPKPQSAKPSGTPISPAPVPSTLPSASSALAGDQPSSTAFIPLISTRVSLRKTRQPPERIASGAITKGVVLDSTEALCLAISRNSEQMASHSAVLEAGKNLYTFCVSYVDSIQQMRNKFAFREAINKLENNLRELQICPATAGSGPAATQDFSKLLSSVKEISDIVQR
Sequence of UniProt P13945 (whole entry, looked up): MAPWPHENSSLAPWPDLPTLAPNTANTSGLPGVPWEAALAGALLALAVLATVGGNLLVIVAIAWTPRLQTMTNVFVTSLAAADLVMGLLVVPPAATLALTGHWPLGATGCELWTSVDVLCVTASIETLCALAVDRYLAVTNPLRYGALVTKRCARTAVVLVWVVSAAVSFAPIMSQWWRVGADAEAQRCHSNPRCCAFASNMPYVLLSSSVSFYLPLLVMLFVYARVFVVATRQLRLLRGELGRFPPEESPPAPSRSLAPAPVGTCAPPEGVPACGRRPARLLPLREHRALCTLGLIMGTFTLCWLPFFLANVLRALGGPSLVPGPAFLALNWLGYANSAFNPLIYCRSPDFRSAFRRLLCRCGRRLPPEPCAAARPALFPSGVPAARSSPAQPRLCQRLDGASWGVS
Sequence of UniProt Q9Y5N1 (whole entry, looked up): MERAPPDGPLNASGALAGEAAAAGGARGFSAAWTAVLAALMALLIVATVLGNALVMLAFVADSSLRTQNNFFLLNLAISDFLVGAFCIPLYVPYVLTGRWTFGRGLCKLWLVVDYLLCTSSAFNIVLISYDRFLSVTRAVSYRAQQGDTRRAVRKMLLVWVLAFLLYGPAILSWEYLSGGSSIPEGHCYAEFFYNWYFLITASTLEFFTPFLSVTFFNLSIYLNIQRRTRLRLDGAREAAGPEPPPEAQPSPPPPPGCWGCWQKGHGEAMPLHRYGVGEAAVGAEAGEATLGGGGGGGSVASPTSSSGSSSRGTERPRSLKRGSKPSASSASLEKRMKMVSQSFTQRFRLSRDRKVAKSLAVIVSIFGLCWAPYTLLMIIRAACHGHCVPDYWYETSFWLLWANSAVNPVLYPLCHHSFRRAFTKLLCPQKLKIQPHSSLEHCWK
Sequence of UniProt P51817 (whole entry, looked up): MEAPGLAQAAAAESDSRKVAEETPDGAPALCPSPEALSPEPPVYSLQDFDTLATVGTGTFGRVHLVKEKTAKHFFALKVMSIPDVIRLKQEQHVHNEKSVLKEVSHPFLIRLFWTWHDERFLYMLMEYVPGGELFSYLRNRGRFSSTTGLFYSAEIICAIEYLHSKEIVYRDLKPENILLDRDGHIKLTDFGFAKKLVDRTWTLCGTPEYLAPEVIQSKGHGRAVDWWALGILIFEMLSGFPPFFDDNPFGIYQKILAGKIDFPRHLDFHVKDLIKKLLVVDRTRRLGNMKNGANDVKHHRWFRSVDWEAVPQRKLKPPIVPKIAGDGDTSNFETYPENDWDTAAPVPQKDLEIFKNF
Sequence of UniProt P08588 (whole entry, looked up): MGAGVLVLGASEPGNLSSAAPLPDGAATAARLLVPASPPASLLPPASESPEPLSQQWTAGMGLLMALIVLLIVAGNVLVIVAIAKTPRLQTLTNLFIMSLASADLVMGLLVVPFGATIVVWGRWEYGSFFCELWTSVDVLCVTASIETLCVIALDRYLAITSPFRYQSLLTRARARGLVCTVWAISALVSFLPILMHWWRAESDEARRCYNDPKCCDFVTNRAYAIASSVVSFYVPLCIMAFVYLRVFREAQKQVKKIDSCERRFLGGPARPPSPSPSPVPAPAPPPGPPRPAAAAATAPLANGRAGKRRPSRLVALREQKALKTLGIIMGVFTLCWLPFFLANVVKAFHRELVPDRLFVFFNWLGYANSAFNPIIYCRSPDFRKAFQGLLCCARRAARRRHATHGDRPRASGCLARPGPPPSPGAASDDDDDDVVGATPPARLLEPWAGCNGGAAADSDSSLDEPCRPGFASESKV
Sequence of UniProt O15197 (whole entry, looked up): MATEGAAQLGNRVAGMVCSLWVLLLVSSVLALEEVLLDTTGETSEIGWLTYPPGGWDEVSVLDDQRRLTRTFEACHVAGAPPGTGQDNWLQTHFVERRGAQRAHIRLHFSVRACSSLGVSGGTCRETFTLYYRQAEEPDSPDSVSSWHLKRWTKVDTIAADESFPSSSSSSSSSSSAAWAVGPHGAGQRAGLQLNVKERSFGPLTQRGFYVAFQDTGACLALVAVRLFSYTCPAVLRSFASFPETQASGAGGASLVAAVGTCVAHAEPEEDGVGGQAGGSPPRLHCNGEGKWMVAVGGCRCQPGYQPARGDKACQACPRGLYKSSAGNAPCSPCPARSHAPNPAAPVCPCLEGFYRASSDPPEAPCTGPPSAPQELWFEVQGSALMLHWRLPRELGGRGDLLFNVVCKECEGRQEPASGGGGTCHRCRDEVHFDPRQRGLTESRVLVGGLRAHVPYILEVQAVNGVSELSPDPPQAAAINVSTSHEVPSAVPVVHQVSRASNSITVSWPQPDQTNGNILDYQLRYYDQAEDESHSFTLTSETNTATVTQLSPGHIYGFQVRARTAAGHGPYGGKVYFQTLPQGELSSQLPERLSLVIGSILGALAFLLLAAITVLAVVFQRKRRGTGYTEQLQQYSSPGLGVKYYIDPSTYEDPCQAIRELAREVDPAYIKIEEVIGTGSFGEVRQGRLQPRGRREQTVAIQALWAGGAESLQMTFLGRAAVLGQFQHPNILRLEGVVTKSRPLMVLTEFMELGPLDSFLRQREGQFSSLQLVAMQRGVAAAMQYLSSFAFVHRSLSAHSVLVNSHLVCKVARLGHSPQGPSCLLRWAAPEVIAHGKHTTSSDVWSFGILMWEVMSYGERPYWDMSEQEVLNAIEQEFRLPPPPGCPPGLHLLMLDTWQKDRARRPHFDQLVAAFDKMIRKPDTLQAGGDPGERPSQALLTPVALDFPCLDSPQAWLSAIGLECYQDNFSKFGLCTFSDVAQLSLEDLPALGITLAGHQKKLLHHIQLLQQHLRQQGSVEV

Series 1 — host: human; sample: microsomes or S9; tested at: 2 µM; time: 0.5 h
| Structure (SMILES) | remaining compound |
| --- | --- |
| Nc1ccc(Sc2nccc(-c3cccs3)n2)cc1 | > 99% |
| Cc1nn(C(C)C(=O)N(C)Cc2cnn(C)c2)cc1Br (stereo not drawn) | 82.9% |
| COc1ccccc1N1C(=O)c2c(NC(C)=O)c3cc(F)ccc3n2CC1(C)C(=O)NC1CCCC1 (stereo not drawn) | 24.2% |
| CSc1c(C(C)=O)c(=O)nc2scc(C)n12 | 45.3% |
| CC1=C(c2ccc(F)cc2)S(=O)(=O)N=C1Nc1ccc2[nH]c(C(F)(F)F)nc2c1 | 49.8% |
| COc1ccccc1N1CCN(/N=C\C(Cl)=C\c2ccccc2)CC1 | 85.8% |
| COc1ccc2c(CSc3nc4ccccc4o3)cc(=O)oc2c1 | 0.17% |
| CCS(=O)(=O)c1ccc(Cc2ccc(S(=O)(=O)CC)cc2)cc1 | 89.5% |
| CCCS(=O)(=O)c1nc2ccc(NS(=O)(=O)Cc3ccccc3)cc2s1 | 69.7% |
| CCOC(=O)Cn1c(=N)sc2cc3c(cc21)OCCO3 | 13.1% |

Series 2 — effect on: ligand displacement; tested at: 10 µM
SMILES: O=C(NCc1ncc(C(F)(F)F)cc1Cl)c1ccc2c(c1)C1(CCS(=O)(=O)CC1)[C@@H](C1CC1)N2S(=O)(=O)c1ccc(F)cc1
| target | inhibition |
| --- | --- |
| D(1A) dopamine receptor (DRD1, Homo sapiens, UniProt P21728) | -42.6% |
| Beta-1 adrenergic receptor (ADRB1, Homo sapiens, UniProt P08588) | -1.82% |
| Alpha-1A adrenergic receptor (ADRA1A, Homo sapiens, UniProt P35348) | 1.7% |
| Histamine H2 receptor (HRH2, Homo sapiens, UniProt P25021) | 16.5% |
| Muscarinic acetylcholine receptor M4 (CHRM4, Homo sapiens, UniProt P08173) | -13.4% |
| Histamine H3 receptor (HRH3, Homo sapiens, UniProt Q9Y5N1) | 6.92% |
| Alpha-2B adrenergic receptor (ADRA2B, Homo sapiens, UniProt P18089) | -1.68% |
| Beta-3 adrenergic receptor (ADRB3, Homo sapiens, UniProt P13945) | -0.77% |
| D(3) dopamine receptor (DRD3, Homo sapiens, UniProt P35462) | 3.82% |

Series 3 — tested at: 1 µM
SMILES: Cc1ccc(NC(=O)c2ccnc(C(F)(F)F)c2)cc1-c1cc(OCCO)nc(N2CCOCC2)c1
| target | assay | remaining binding |
| --- | --- | --- |
| Phosphatidylinositol 4,5-bisphosphate 3-kinase catalytic subunit alpha isoform (PIK3CA, Homo sapiens, UniProt P42336, I800L) | binding | 88% |
| Myosin light chain kinase 2, skeletal/cardiac muscle (MYLK2, Homo sapiens, UniProt Q9H1R3) | binding, competition with immobilised ligand | 98% |
| Ephrin type-B receptor 6 (EPHB6, Homo sapiens, UniProt O15197) | binding, competition with immobilised ligand | 95% |
| Tyrosine-protein kinase ABL1 (ABL1, Homo sapiens, UniProt P00519, Q252H) | – | 59% and 99% |
| cAMP-dependent protein kinase catalytic subunit PRKX (PRKX, Homo sapiens, UniProt P51817) | binding | 100% |
| Phosphatidylinositol 4,5-bisphosphate 3-kinase catalytic subunit alpha isoform (PIK3CA, Homo sapiens, UniProt P42336, Q546K) | binding | 80% |

Series 4 — effect on: binding; mode: competitor; technique: NanoBRET; cells: HEK293; relative to: vehicle and 20 µM BI compound
SMILES: Cn1cnc(Cn2ccc3ccc(CNCc4[nH]c5ccccc5c4[C@H]4NC(=O)c5ccc(O)cc54)cc32)c1
Target: GTPase KRas (KRAS, Homo sapiens, UniProt P01116, G12C)
| conditions | normalized BRET |
| --- | --- |
| 27.4 nM, 1 h | 111% and 91.2% and 95.7% and 95.2% |
| 247 nM, 4 h | 91.6% and 99.3% and 93.6% and 91.9% |
| 9.14 nM, 3 h | 103% and 104% and 98.6% and 86.1% |
| 20 µM, 1 h | 0.97% and -1.27% and 0.14% and 0.16% |
| 6.67 µM, 0.5 h | 5.67% and 6.95% and 10.3% and 7.66% |
| 1.02 nM, 2 h | 97.9% and 98.7% and 106% and 93.6% |
| 339 pM, 2 h | 105% and 106% and 92.9% |
| 2.22 µM, 2 h | 13.7% and 14.2% and 12.2% and 11.6% |

Excerpt of the above (series 2):
| target | inhibition |
| --- | --- |
| Alpha-1A adrenergic receptor (ADRA1A, Homo sapiens, UniProt P35348) | 1.7% |
| Histamine H2 receptor (HRH2, Homo sapiens, UniProt P25021) | 16.5% |
| Muscarinic acetylcholine receptor M4 (CHRM4, Homo sapiens, UniProt P08173) | -13.4% |
| Histamine H3 receptor (HRH3, Homo sapiens, UniProt Q9Y5N1) | 6.92% |
| Alpha-2B adrenergic receptor (ADRA2B, Homo sapiens, UniProt P18089) | -1.68% |
